Measurements collected from several papers.
± gives the spread as reported.
Fibroin-modulator-binding protein-1: Fibroin-modulator-binding protein-1 99-193 (Bombyx mori, UniProt Q5FBS0)
SPT15/TOA1/TOA2/SUA7 1-240; 1-286; 1-122; 1-345: SPT15/TOA1/TOA2/SUA7 1-240; 1-286; 1-122; 1-345 (Saccharomyces cerevisiae)
Sequence of UniProt P17802 (whole entry, looked up): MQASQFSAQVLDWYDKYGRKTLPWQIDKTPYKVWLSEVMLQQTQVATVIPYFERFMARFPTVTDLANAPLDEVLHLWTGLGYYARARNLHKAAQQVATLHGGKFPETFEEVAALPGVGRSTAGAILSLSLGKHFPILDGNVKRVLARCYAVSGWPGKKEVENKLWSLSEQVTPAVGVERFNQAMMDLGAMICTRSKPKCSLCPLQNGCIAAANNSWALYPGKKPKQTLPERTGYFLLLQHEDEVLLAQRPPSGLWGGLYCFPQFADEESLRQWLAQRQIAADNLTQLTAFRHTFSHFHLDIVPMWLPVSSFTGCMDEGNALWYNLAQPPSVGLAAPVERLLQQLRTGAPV

| Molecule | target | assay | test system | setting | how to read | measurement | value |
| --- | --- | --- | --- | --- | --- | --- | --- |
| AGTGAGTGAGTG (dsDNA) | Fibroin-modulator-binding protein-1 | ITC | double-stranded DNA, one strand shown | – | – | Kd | 6.51 µM |
| DNA 1 CACTGGCCGTCTTACGGTCGCTCTGCTCGACG / DNA 2 CGACCGTAAGACGGCCAGTG (dsDNA; 20 bp, 3' 12 nt overhang) | RECQL 63-592 E328A (Homo sapiens, UniProt P46063) | fluorescence anisotropy | double-stranded DNA | with: Mg2+ 3 mM | – | Kd | 0.0171 ± 0.001 µM |
| GSGAGIESNV | human SCRIB PDZ3-4 tandem (MBP fusion) | automated holdup | peptide, crude extract | concentration not given, corrected by standard peak, unit not given | baseline: biotin control resin, higher = stronger binding | binding intensity | 0.698 |
| ACTGACTGACTG (dsDNA) | Fibroin-modulator-binding protein-1 | ITC | double-stranded DNA, one strand shown | – | – | Kd | 8.44 µM |
| CTCAGGAATTCCGATAAAGTAATGTGGAGCTCAGTTCAAGTCAATCGGTCC (dsDNA; 5'-amino-C6 primer) | SPT15/TOA1/TOA2/SUA7 1-240; 1-286; 1-122; 1-345 | array | double-stranded DNA, one strand shown | TBP:TFIIA:TFIIB ternary complex | – | Kd | 0.00888 ± 0.00638 µM |
| GGGAGAACUUCGACCAGAAGUACGACUACUUCGGCACAUUACGCGACGAUCGAACCCGCCUAUGUGCGCAUACAUGGAUCCUC (ssRNA; 2'-fluoro pyrimidines) | integrin alphaV/beta3 31-992/27-718 (Homo sapiens) | SPR | RNA | with: MnCl2 1 mM | higher = more binding | relative binding | 47 RU |
| DNA 1 GATCGATCGATCGATCGATCGATCGATCGATCGATTCAATTCAATCGGTCC / DNA 2 GGACCGATTGACTTGAATCGATCGATCGATCGATCGATCGATCGATCGATC (dsDNA; 5'-amino-C6 primer) | SPT15/TOA1/TOA2/SUA7 1-240; 1-286; 1-122; 1-345 | array | double-stranded DNA | TBP:TFIIA:TFIIB ternary complex | – | Kd | 0.0026 ± 0.00037 µM |
| CTGTAACGGGAGCTAGTGGCTCCATGATCG / CGATCATGGAGCCACGAGCTCCCGTTACAG (dsDNA; blunt; 8-oxoG:2'-fluoro-A mismatch) | mutY full length assumed (Escherichia coli, UniProt P17802) | fluorescence polarization | – | apparent | – | K1/2 | 7 ± 1 nM |
| GGGAGAACUUCGACCAGAAGACUAUAUCCGCCGUACUACGCAUCUUUUUCUUCCUGCCUGUAUGUGCGCAUACAUGGAUCCUC (ssRNA; 2'-fluoro pyrimidines) | integrin alphaV/beta3 31-992/27-718 (Homo sapiens) | SPR | RNA | with: MnCl2 1 mM | higher = more binding | relative binding | 45.2 RU |
| CCAGCCAGCCAG (dsDNA) | Fibroin-modulator-binding protein-1 | ITC | double-stranded DNA, one strand shown | – | – | Kd | 6.51 ± 0.63 µM |
| PKRSFIESNV | human MAGI1-3/6 PDZ construct (MBP fusion) | automated holdup | peptide, crude extract | concentration not given, uncorrected, unit not given | baseline: biotin control resin, higher = stronger binding | binding intensity | 0.356 |
| GGGAGAACUUCGACCAGAAGCACCUCUCCCAACAGCGGAACUGUUUCUCGGUCCAAAAGGUAUGUGCGCAUACAUGGAUCCUC (ssRNA; 2'-fluoro pyrimidines) | integrin alphaV/beta3 31-992/27-718 (Homo sapiens) | SPR | RNA | with: MnCl2 1 mM | higher = more binding | relative binding | 24.8 RU |
| CGAGCGAGCGAG (dsDNA) | Fibroin-modulator-binding protein-1 | ITC | double-stranded DNA, one strand shown | – | – | Kd | 7.65 ± 0.753 µM |
| GGGAGAACUUCGACCAGAAGGUACUACGCCACAACGAACCCCGGCCUGUACCUUUCCGUAUAUGUGCGCAUACAUGGAUCCUC (ssRNA; 2'-fluoro pyrimidines) | integrin alphaV/beta3 31-992/27-718 (Homo sapiens) | SPR | RNA | with: MnCl2 1 mM | higher = more binding | relative binding | 99.7 RU |
| CTCAGGAATTCCTATAAGGTAATGTGGAGCTCAGTTCAAGTCAATCGGTCC (dsDNA; 5'-amino-C6 primer) | SPT15/TOA1/TOA2/SUA7 1-240; 1-286; 1-122; 1-345 | array | double-stranded DNA, one strand shown | TBP:TFIIA:TFIIB ternary complex | – | Kd | 0.00345 ± 0.0006 µM |
| GAGAGAGAGAGA (dsDNA) | Fibroin-modulator-binding protein-1 | ITC | double-stranded DNA, one strand shown | – | – | Kd | 4.68 ± 0.499 µM |
| GGGAGAACUUCGACCAGAAGUUAUCACCCCUGCACAUUACGCAAAAGUAUUAUCCCUGCCUAUGUGCGCAUACAUGGAUCCUC (ssRNA; 2'-fluoro pyrimidines) | integrin alphaV/beta3 31-992/27-718 (Homo sapiens) | SPR | RNA | with: MnCl2 1 mM | higher = more binding | relative binding | 57.2 RU |

A few entries again:
| Molecule | target | assay | test system | setting | how to read | measurement | value |
| --- | --- | --- | --- | --- | --- | --- | --- |
| CTCAGGAATTCCTATAAGGTAATGTGGAGCTCAGTTCAAGTCAATCGGTCC (dsDNA; 5'-amino-C6 primer) | SPT15/TOA1/TOA2/SUA7 1-240; 1-286; 1-122; 1-345 | array | double-stranded DNA, one strand shown | TBP:TFIIA:TFIIB ternary complex | – | Kd | 0.00345 ± 0.0006 µM |
| GAGAGAGAGAGA (dsDNA) | Fibroin-modulator-binding protein-1 | ITC | double-stranded DNA, one strand shown | – | – | Kd | 4.68 ± 0.499 µM |
| GGGAGAACUUCGACCAGAAGUUAUCACCCCUGCACAUUACGCAAAAGUAUUAUCCCUGCCUAUGUGCGCAUACAUGGAUCCUC (ssRNA; 2'-fluoro pyrimidines) | integrin alphaV/beta3 31-992/27-718 (Homo sapiens) | SPR | RNA | with: MnCl2 1 mM | higher = more binding | relative binding | 57.2 RU |
